Published values from different studies.
Numbered parts are unrelated; each lists some results of a single study. Positions count from the first letter of the parent shown.

Sample 1
Substance: PhoQ, residues 284 288 289 292 302 303 ASSHFY
Technique: Sort-seq
Measured: YFP reporter
Sample: E. coli
Notes: PhoQ-PhoP variant library
Together with: 10 µM Mg2+
Relative to: high Mg2+ state
Reading: higher = stronger signaling
| target | fold induction |
| --- | --- |
| PhoP, residues 12 14 15 18 19 VHTVL (Escherichia coli, UniProt P23836) | 2.1 |
| PhoP, residues 12 14 15 18 19 ICWRQ (Escherichia coli, UniProt P23836) | 5.2 |
| PhoP, residues 12 14 15 18 19 TQCLL (Escherichia coli, UniProt P23836) | 13.4 |

Sample 2
Target: Ras GTPase-activating protein-binding protein 1, RRM domain (G3BP1, Homo sapiens, UniProt Q13283)
Sequence of UniProt Q13283 (whole entry, looked up): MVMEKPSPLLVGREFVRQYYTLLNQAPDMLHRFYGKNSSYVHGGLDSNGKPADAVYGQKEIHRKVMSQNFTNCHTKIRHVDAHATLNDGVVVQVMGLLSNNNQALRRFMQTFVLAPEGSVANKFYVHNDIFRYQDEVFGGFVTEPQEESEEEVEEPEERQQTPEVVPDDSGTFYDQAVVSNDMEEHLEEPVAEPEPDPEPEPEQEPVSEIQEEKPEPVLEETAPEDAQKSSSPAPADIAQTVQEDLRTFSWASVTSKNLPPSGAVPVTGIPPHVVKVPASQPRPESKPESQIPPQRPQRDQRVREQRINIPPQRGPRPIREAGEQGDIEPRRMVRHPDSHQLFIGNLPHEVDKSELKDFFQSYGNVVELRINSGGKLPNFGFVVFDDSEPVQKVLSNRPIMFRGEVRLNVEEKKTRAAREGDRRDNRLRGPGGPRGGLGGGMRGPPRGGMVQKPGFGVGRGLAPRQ
Technique: RNA Bind-n-Seq
Form: RNA
Sample: in vitro
Tested at: 1 µM
Notes: whole 134-nt RNA, ends assumed
Together with: 150 mM KCl
Relative to: input library
Reading: higher = stronger binding
| Strand | log2 enrichment |
| --- | --- |
| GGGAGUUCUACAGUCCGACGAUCCCUGUGCUACACAUCGUAUGUACCGAAUCGGGGCCCCCCCGGCCCCCCCGGGCCCCCCCGGAAAGUAUUAUGUUACGCCGUUCGGAUCUGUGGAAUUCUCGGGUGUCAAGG | -0.591 |
| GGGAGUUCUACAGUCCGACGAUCUGGCCCUGGUGGCAUGCGGGGAGGAAGAGGUGGCCUCAUGGGUCGUGGUGGUCCCGGUGGAAUGUUCAGAGGUGGCCGUGGUGGAGACAGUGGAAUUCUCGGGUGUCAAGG | 0.847 |
| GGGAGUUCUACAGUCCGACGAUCUGGCCCUGGUGGCAUGCGGGGAGGAACAGGUGGCCUCAUGGAUCGUGGUGGUCCCGGUGGAAUGUUCAGAGGUGGCCGUGGUGGAGACAGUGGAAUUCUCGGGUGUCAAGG | 0.714 |
| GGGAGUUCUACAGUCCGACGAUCCUCAAGUCCUGUGCUACACAUCGUAUGUACCGAAUCGGGUUGGGUUGGGGUUGGAAAGUAUUAUGUUACGCCGUUCGGAUCUGCACUUCCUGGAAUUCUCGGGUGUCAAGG | -0.133 |
| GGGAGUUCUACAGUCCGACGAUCUCAAGUCCUGUGCUACACAUCGUAUGUACCGAAUCGGGUUUGGGUUUGGGAGGGAAAGUAUUAUGUUACGCCGUUCGGAUCUGCACUUCCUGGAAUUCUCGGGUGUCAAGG | 0.602 |
| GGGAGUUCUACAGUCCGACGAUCAAGUCCUGUGCUACACAUCGUAUGUACCGAAUCGGGGAAAAGGAAAAGGAAAAGGGGAAAGUAUUAUGUUACGCCGUUCGGAUCUGCACUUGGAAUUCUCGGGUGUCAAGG | -0.106 |
| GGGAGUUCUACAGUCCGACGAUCCCUGUGCUACACAUCGUAUGUACCGAAUCAAAUUUUUAAACCCCCCCAAACCCCCCCAAAAAAGUAUUAUGUUACGCCGUUCGGAUCUGCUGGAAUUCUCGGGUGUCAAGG | -0.69 |
| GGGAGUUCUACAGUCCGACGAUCCCUGUGCUACACAUCGUAUGUACCGAAUCGGGGUUUUUGGGGUUUGGGGUUUUUUUGGGGAAAGUAUUAUGUUACGCCGUUCGGAUCUGCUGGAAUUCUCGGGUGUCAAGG | 1.05 |
| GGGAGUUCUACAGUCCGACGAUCCCUGUGCUACACAUCGUAUGUACCGAAUCGGGGAAAAAGGGGUUUGGGGAAAAAAAGGGGAAAGUAUUAUGUUACGCCGUUCGGAUCUGCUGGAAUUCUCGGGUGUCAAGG | 0.553 |
| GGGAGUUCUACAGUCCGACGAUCCACAGACAACACGCACGCACACAGACACAGAGGGAAGGGGUUGGGAUGGGGACAGGGUGCACAGCAGGGCGGGGUAGGACCCCAGCCCCUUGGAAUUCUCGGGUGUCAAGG | -0.194 |
| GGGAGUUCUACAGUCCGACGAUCCCUCAAGUCCUGUGCUACACAUCGUAUGUACCGAAUCGGAGGGAGGGAGGGGAAAGUAUUAUGUUACGCCGUUCGGAUCUGCACUUCCAGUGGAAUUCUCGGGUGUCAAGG | 0.0819 |
| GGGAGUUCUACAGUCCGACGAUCACCAUGCAGGUGGGCAUCUUUGGGAAGUGGGGCAAGGGGAGGAUAGGGAGGGGGGUAACACUUUGGGAACAGGUGGUCCCAGGUCGUUUCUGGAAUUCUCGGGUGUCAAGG | -0.468 |
| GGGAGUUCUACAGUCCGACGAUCCUCAAGUCCUGUGCUACACAUCGUAUGUACCGAAUCGGUUUGGUUUUUGGUGGAAAGUAUUAUGUUACGCCGUUCGGAUCUGCACUUCCAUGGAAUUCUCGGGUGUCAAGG | -0.225 |
| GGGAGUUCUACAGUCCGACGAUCGCAGGAAGUAAAAACAAAUGGAACUGCUUCGGAUAGUGGCAGGGGUGGGGGUUGCUAAGGAAAGGGUGGGAUGGGAGUGGGUAAAGAGUUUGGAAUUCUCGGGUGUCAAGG | 1.4 |

Sample 3
Target: CCNF, cyclin fold, Cln2 fusion (human)
Technique: yeast growth competition, sequencing
Sample: yeast
Notes: strong parent motif
Relative to: not given
Reading: higher = stronger binding
Starting sequence: SAMHD1 docking peptide (human); ASKSRVQLFKDDP
| Substitution | normalised enrichment score |
| --- | --- |
| ASLSRVQLFKDDP [K3L] | 1.31 |
| ASKSRVQLQKDDP [F9Q] | -0.166 |
| ASKSRVQLFKDLP [D12L] | 1.11 |
| ASMSRVQLFKDDP [K3M] | 1.72 |
| ASGSRVQLFKDDP [K3G] | 0.853 |
| ASKSRVQLFKDVP [D12V] | 1.64 |
| ASVSRVQLFKDDP [K3V] | 1.13 |
| ASKSRVQLFKDAP [D12A] | 0.891 |
| ASKSRVQLIKDDP [F9I] | 0.179 |
| ASKSRVQLFMDDP [K10M] | 0.634 |
| ASKSRVQLFKWDP [D11W] | 0.409 |
| ASKSRVQLFRDDP [K10R] | 0.812 |
| ASKSRVQLFKQDP [D11Q] | 0.571 |
| ASKSVVQLFKDDP [R5V] | 0.666 |
| ASKSRVQLTKDDP [F9T] | 0.0869 |
| ASKSRVQWFKDDP [L8W] | -0.0064 |

Sample 4
Target: CREBRF, bZIP domain (human)
Technique: DHFR protein complementation
Sample: yeast
Notes: single substitutions, most at no-binding floor
Relative to: wild-type JUN-FOS pair
Reading: higher = stronger binding
Starting sequence: JUN, bZIP domain (human); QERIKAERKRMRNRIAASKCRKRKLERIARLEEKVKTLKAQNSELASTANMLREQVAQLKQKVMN; partner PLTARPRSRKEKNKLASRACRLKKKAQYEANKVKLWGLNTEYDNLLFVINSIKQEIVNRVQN
| Substitution | binding fitness |
| --- | --- |
| V56T | -1.35 natural log |
| E33T | -1.46 natural log |
| K34F | -0.974 natural log |
| L59R | -1.42 natural log |
| A46D | -1.57 natural log |
| M51Q | -1.4 natural log |
| A40D | -1.45 natural log |
| A57S | -1.56 natural log |
| L31H | -1.46 natural log |
| A49R | -1.36 natural log |
| R30G | -1.32 natural log |
| R30E | -1.25 natural log |
| A57Q | -1.36 natural log |
| I28G | -1.52 natural log |
| N42A | -1.42 natural log |
| V35S | -1.54 natural log |
| L52V | -1.32 natural log |

For quick reference, copied from above (sample 2):
| Strand | log2 enrichment |
| --- | --- |
| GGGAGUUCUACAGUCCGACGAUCCCUGUGCUACACAUCGUAUGUACCGAAUCGGGGAAAAAGGGGUUUGGGGAAAAAAAGGGGAAAGUAUUAUGUUACGCCGUUCGGAUCUGCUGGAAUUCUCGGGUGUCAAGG | 0.553 |
| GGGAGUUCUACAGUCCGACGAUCUGGCCCUGGUGGCAUGCGGGGAGGAAGAGGUGGCCUCAUGGGUCGUGGUGGUCCCGGUGGAAUGUUCAGAGGUGGCCGUGGUGGAGACAGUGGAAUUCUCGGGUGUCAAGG | 0.847 |
| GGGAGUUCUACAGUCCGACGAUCUCAAGUCCUGUGCUACACAUCGUAUGUACCGAAUCGGGUUUGGGUUUGGGAGGGAAAGUAUUAUGUUACGCCGUUCGGAUCUGCACUUCCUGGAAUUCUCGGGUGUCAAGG | 0.602 |
